Published values gathered from unrelated publications.
Each numbered part is a random draw from the data of one study; scales do not carry over between parts.

Study 1
Target: Centromere-binding protein 1, full length, N-terminal tag (CBF1, Saccharomyces cerevisiae, UniProt P17106, residues 1-351)
Sequence of UniProt P17106 (whole entry, looked up): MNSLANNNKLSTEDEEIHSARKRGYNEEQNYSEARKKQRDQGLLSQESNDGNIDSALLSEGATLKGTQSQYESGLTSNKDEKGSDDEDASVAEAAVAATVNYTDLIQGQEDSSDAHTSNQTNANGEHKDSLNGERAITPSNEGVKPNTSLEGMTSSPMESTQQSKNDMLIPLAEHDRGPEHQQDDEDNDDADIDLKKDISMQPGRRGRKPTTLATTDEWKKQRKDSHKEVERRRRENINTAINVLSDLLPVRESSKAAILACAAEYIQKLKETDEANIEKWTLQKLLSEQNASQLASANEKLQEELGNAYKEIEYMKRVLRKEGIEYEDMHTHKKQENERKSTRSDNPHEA
Technique: protein-binding microarray
Form: double-stranded DNA, one strand shown
Matrix: in vitro
Tested at: 0.8 µM
Setting: whole 60-bp probe, no competitor
Direction: higher = stronger binding
Constant ends, left off below: … GTCTTGATTCGCTTGACGCTGCTG
| Sequence | fluorescence intensity |
| --- | --- |
| TGTACGAAGCTATGTGGGGTGAATATAGTAGTTAGG | 523 a.u. |
| CTAAGTGTCTCATCAAACGTGGTTAAGACAGAATTC | 546 a.u. |
| CTAAGCTTTTCAAATCACGCAATGGAATATTTGTTC | 750 a.u. |
| GAAGCAAAAAAATCAGGTGTGCAGCTATAGATCTAG | 859 a.u. |
| GAATCTTTTGTACATCACGTTTCACTATATATTTAG | 2400 a.u. |
| CTATAGGCGCTAGGGTGGGTGACGCATTTTAACTTC | 518 a.u. |
| CTAACTCCTTCGAAACACGTTCCAAAGAGTTATTTC | 529 a.u. |
| CTAGGTCAGAAAACACACGCGGAAAATCCAAAGTTC | 531 a.u. |
| GAAGTTATTGCGGCGCACGTCTATAGGTGATTTTAG | 531 a.u. |
| GAAACCTGTACTCTACACGTTTATTGTTAAACATAG | 599 a.u. |
| CTAACGTGGCCGCTTCGTGTGCCTTGAAAATACTTC | 530 a.u. |
| CTAGGAATAGCACATGGTGATGGTACAACAATGTTC | 724 a.u. |
| GAAAGGAGGGACCTCCACGTGCCAAACGACACTTAG | 2140 a.u. |
| CTAATTAGTCCCTTGCACGTTCATAGTGAAAATTTC | 597 a.u. |
| TGTACGAAGCTATGTCACGTACCTATAGTAGTTAGG | 766 a.u. |
| GAATTCTGTTCATCGCATGTGCATATATATATATAG | 2330 a.u. |
| CTATGTTCTTTCCATCACGAAAGTGACTTCATTTTC | 597 a.u. |
| GAATCTAGAACTCACGTTATGATATATTCTTACTAG | 722 a.u. |
| CTATCCTTTTTTAGCACGTGAACGGTAATAACGTTC | 11900 a.u. |

Study 2
Target: TAR DNA-binding protein 43, full length, His tag (TARDBP, Homo sapiens, UniProt Q13148, residues 1-414)
Technique: RNA Bind-n-Seq
Form: RNA
Matrix: in vitro
Tested at: 20 nM
Setting: 6-mer, flanks averaged, single round
Added: 150 mM LiCl
Relative to: input library
Direction: higher = stronger binding
| Sequence | 6-mer enrichment (R) |
| --- | --- |
| AAUACU | 0.856 |
| UACAAU | 0.904 |
| CAGGGC | 0.973 |
| UAAAAA | 1.01 |
| UUGUGA | 1.17 |
| CGGGCA | 0.964 |
| GGUACG | 1.03 |
| GAGGUA | 1.08 |
| CGGCUC | 0.886 |
| CAAGCA | 0.831 |
| AGUCUC | 0.832 |
| AGAUAG | 0.92 |
| GCACGC | 0.93 |
| GAUCGG | 1.02 |
| GUUCAG | 0.946 |

Study 3
Target: Max-binding protein MNT, bHLH-zipper, MAX partner unstated (MNT, Homo sapiens, UniProt Q99583, residues 220-300)
Technique: protein-binding microarray
Form: double-stranded DNA, one strand shown
Matrix: in vitro
Tested at: not given
Setting: k-mer, scored over probes, only values ≥0.25
Direction: higher = stronger binding
Target sequence (chain): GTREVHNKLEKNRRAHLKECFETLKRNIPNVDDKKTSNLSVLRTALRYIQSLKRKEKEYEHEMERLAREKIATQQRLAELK
| Sequence | E-score |
| --- | --- |
| ACGGGGTA | 0.274 |
| AGCGTGGG | 0.401 |
| CATACACG | 0.401 |
| CATGTGCG | 0.481 |
| ACAATGTG | 0.321 |
| GTGCGGCA | 0.328 |
| CACGACGC | 0.265 |
| CACGTGGG | 0.497 |
| ACCTCACG | 0.254 |
| CGCATGTA | 0.396 |
| GCATGCGA | 0.409 |
| CACGTTAA | 0.301 |
| GAGCCCAC | 0.262 |

Mixed results
| Molecule | target | test | system | conditions | scale | endpoint | value |
| --- | --- | --- | --- | --- | --- | --- | --- |
| PhoQ, residues 284 288 289 292 302 303 TTCLQL | PhoP, residues 12 14 15 18 19 LYFRQ (Escherichia coli, UniProt P23836) | Sort-seq, measured: YFP reporter | E. coli | PhoQ-PhoP variant library, added: 10 µM Mg2+ | relative to: high Mg2+ state, higher = stronger signaling | fold induction | 3.47 |
